Measured values pooled from the literature.
Numbered parts are unrelated; each lists some results of a single study. Substitutions count along the parent as printed.

Sample 1
Target: CCND1, cyclin fold, Cln2 fusion (human)
Method: yeast growth competition, sequencing
Matrix: yeast
Notes: weak parent motif
Relative to: not given
Reading: higher = stronger binding
Parent: viral docking peptide; PGASRRLFGSSAD
Under “normalised enrichment score”, `PGASRRLLGSSAD [F8L]` is recorded as 0.088.
For `PGASRRLFGSSAA [D13A]`, “normalised enrichment score” read 0.357.
For `PGAARRLFGSSAD [S4A]`, “normalised enrichment score” read 0.858.
`PGASARAFGSSAD [R5A L7A]` — result for “normalised enrichment score”: 0.198.
`PGASRRAFGSSAD [L7A]` — result for “normalised enrichment score”: -0.399.
For `PGASKRLLGSSAD [R5K F8L]`, “normalised enrichment score” read -0.21.
`PGASRALFGSSAD [R6A]` — result for “normalised enrichment score”: -0.349.
For `PGASRRLAGSSAD [F8A]`, “normalised enrichment score” read -0.308.
Under “normalised enrichment score”, `PGASRRLFGASAD [S10A]` is recorded as -0.296.

Sample 2
Target: Prothrombin, mature alpha-thrombin (F2, Homo sapiens, UniProt P00734)
Method: aptamer microarray, sandwich
Form: DNA with 2'F-ANA
Matrix: in vitro
Tested at: 200 nM
Notes: whole 15-mer aptamer, many near background
Added: Cy3 exosite-II aptamer, 400 nM
Reading: higher = stronger binding
Oligonucleotide: GGTTGGTGTGGTTGG
`2'F-ANA at 2 3 5 6 9 12 13 14 15` — result for “mean fluorescence intensity”: 51.6 a.u.
`2'F-ANA at 1 2 3 4 6 7 11 12 13 14 15` — result for “mean fluorescence intensity”: 67.1 a.u.
`2'F-ANA at 1 2 4 5 6 7 8 10 11 14` — result for “mean fluorescence intensity”: 48.4 a.u.
`2'F-ANA at 1 6 9 11 12` — result for “mean fluorescence intensity”: 268 a.u.
Under “mean fluorescence intensity”, `2'F-ANA at 3 5 6 8 9 11 12 13` is recorded as 644 a.u.
`2'F-ANA at 1 2 6 7 8 12 15` — result for “mean fluorescence intensity”: 394 a.u.
`2'F-ANA at 1 2 3 5 6 7 8 11 12`: “mean fluorescence intensity” 124 a.u.
`2'F-ANA at 5 6 8 10 11 12 13 14` — result for “mean fluorescence intensity”: 48.6 a.u.

Sample 3
Target: inorganic phosphate, free oxyanion
Method: microfluidic competitive inhibition
Matrix: in vitro, cell-free expressed
Tested at: not given
Notes: derived from inhibition constants, unchanged parent 615000 nM
Reading: lower = stronger binding
Parent: PafA, mature enzyme, eGFP fusion (Elizabethkingia meningoseptica, UniProt Q9KJX5); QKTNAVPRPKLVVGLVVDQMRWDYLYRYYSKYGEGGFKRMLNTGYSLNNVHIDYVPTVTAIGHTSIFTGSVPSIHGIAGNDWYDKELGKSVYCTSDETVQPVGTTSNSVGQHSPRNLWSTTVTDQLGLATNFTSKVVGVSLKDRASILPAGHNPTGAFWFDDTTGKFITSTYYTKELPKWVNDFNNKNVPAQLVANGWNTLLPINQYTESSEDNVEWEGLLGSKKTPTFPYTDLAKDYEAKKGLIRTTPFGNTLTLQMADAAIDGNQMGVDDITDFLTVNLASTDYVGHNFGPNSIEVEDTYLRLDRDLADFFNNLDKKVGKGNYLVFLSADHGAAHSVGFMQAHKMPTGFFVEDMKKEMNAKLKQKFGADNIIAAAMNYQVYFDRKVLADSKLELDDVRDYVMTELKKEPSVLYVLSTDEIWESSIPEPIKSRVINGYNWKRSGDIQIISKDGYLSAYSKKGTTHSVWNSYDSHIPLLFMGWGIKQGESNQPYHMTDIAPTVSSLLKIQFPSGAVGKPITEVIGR
`A375V` — result for “phosphate dissociation constant”: 697 µM.
`W423V`: “phosphate dissociation constant” 665 µM.
`L87G` — result for “phosphate dissociation constant”: 450 µM.
`Q492V`: “phosphate dissociation constant” 625 µM.
Under “phosphate dissociation constant”, `P512V` is recorded as 349 µM.
For `Y207V`, “phosphate dissociation constant” read 427 µM.

Sample 4
Target: UDP-N-acetylglucosamine--peptide N-acetylglucosaminyltransferase 110 kDa subunit (OGT, Homo sapiens, UniProt O15294)
UniProt O15294, sequence (whole entry, looked up): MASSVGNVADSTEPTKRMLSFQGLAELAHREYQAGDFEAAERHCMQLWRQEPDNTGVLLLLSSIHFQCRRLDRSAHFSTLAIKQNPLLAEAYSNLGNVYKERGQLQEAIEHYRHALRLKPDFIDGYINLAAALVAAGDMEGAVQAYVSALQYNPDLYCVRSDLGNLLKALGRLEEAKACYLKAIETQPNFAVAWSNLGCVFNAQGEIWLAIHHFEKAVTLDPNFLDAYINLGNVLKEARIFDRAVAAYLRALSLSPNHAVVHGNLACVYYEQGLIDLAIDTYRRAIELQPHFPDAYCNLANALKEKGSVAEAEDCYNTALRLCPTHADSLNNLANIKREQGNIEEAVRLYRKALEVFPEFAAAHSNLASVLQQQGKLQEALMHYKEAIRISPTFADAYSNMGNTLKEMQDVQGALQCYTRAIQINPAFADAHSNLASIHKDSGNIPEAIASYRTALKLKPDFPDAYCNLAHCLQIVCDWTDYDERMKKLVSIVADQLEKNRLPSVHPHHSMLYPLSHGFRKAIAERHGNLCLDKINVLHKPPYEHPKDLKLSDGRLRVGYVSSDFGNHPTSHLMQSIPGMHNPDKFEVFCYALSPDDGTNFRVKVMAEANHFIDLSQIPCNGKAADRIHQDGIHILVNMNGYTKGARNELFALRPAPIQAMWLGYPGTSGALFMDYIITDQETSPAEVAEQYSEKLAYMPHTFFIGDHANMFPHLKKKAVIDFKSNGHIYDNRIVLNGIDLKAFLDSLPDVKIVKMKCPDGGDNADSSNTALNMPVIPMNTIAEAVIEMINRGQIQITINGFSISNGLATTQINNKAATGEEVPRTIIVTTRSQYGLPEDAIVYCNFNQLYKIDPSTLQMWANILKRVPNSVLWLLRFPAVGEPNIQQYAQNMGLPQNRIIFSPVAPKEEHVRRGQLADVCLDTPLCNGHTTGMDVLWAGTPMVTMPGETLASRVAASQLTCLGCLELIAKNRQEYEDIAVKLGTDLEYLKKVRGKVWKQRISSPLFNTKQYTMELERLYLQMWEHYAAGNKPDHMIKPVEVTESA
Observed: binding
Method: phage display NGS
Form: peptide
Tested at: concentration not given
Relative to: input library
Under “enrichment fold change”, `AHQNRYMPFYKIEFF` is recorded as 9.15.
`HWHPLHQQMPHDMGS` — result for “enrichment fold change”: 13.
For `HVMHYHYQHGYTQP`, “enrichment fold change” read 6.01.
For `ATRYDMHHPHLHPSN`, “enrichment fold change” read 3.84.
Under “enrichment fold change”, `HRQHHVTDSMNPYRT` is recorded as 5.16.
`HQRHGQHQQVFFHID` — result for “enrichment fold change”: 9.37.
`HTRADFHHFHHDVEQ` — result for “enrichment fold change”: 6.02.
Under “enrichment fold change”, `HQQQHHEVSGHHLVR` is recorded as 4.34.
`YPWHRPHQHTYERDE` — result for “enrichment fold change”: 5.34.
`WDYIPMYQIQSVRG`: “enrichment fold change” 9.37.
`HDQRHHQRETKGEVH`: “enrichment fold change” 4.38.
`VLWPPYTYHHNHHRI`: “enrichment fold change” 56.2.
For `HYTPHQQQRAHAKWS`, “enrichment fold change” read 13.7.
For `HFDHYYNAHEDHVA`, “enrichment fold change” read 3.54.
`NAKFFPKYQIGMTP`: “enrichment fold change” 3.94.
For `TIIHHTSTANRQHAS`, “enrichment fold change” read 7.32.
Under “enrichment fold change”, `SSNEPHYPPKYQMVI` is recorded as 2.43.
For `ATWHPYHHGHEYIV`, “enrichment fold change” read 8.89.
`EAAATFPPMYQLQVV` — result for “enrichment fold change”: 14.3.
For `FSFKPVYEIVLEQK`, “enrichment fold change” read 1.86.
Under “enrichment fold change”, `HQAHRTHFPSRTDYV` is recorded as 4.04.
`QPEWRPQYQIRITSM`: “enrichment fold change” 5.4.
`TQGMHPQRPHHVGY`: “enrichment fold change” 4.41.
Under “enrichment fold change”, `QWQYNLMPYYSINYK` is recorded as 1.97.
`TDYMFTQHHWHKVQH` — result for “enrichment fold change”: 9.33.

Sample 5
Target: Hepatocyte nuclear factor 3-beta, forkhead domain (FOXA2, Homo sapiens, UniProt Q9Y261, residues 142-269)
Method: protein-binding microarray
Form: double-stranded DNA, one strand shown
Matrix: in vitro
Tested at: not given
Notes: k-mer, scored over probes, only values ≥0.25
Reading: higher = stronger binding
Construct (chain): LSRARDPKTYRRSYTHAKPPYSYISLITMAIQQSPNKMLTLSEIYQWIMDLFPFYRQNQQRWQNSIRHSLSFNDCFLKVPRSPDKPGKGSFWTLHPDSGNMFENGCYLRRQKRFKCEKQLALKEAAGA
With `AAACTACT` the E-score was 0.262.
`GTGTTATA` has an E-score of 0.324.
`CTGTTATA` gave an E-score of 0.307.
For `TGTTATAA`, the E-score was 0.282.
For `GTATCAAC`, the E-score was 0.306.
`ATAACATA` gave an E-score of 0.349.
`ATAAAAAT` has an E-score of 0.267.
`GTAAAGTA` has an E-score of 0.321.

For quick reference, copied from above (sample 2):
`2'F-ANA at 1 2 3 4 6 7 11 12 13 14 15` — result for “mean fluorescence intensity”: 67.1 a.u.
`2'F-ANA at 1 2 4 5 6 7 8 10 11 14` — result for “mean fluorescence intensity”: 48.4 a.u.
`2'F-ANA at 1 6 9 11 12` — result for “mean fluorescence intensity”: 268 a.u.
Under “mean fluorescence intensity”, `2'F-ANA at 3 5 6 8 9 11 12 13` is recorded as 644 a.u.
`2'F-ANA at 1 2 6 7 8 12 15` — result for “mean fluorescence intensity”: 394 a.u.
